{"data": "Results from different studies", "note": "A part holds a random share of what one study measured."}
{"data": "Series 1", "target": "Histone acetyltransferase KAT6A, winged helix 1, GST fusion (KAT6A, Homo sapiens, UniProt Q92794, residues 1-85)", "method": "protein binding microarray", "form": "double-stranded DNA, one strand shown", "sample": "in vitro", "concentration": "not given", "setting": "8-mer, flanks averaged, mean of 2 arrays, mostly near background", "relative to": "not given", "direction": "higher = stronger binding", "Residues (chain)": "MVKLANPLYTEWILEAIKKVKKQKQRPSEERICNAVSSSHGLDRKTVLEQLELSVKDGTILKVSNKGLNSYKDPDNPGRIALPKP"}
{"Sequence": "AACACTTC", "E-score": -0.216}
{"Sequence": "ATCGAAAC", "E-score": 0.0653}
{"Sequence": "AGGTTTAC", "E-score": -0.124}
{"Sequence": "GCTCAAGC", "E-score": 0.0806}
{"Sequence": "ACACGTGT", "E-score": -0.35}
{"Sequence": "GGGGCGAC", "E-score": 0.0858}
{"Sequence": "CACGGTCC", "E-score": 0.0853}
{"Sequence": "ACGAGCAG", "E-score": -0.11}
{"data": "Series 2", "target": "Interferon regulatory factor 5, full length, phosphomimetic (IRF5, Homo sapiens, UniProt Q13568-2, residues 1-514, K96S/S451D/S453D/S456D/S462D)", "method": "protein-binding microarray", "form": "double-stranded DNA, one strand shown", "sample": "in vitro", "concentration": "250 nM", "setting": "60-bp whole probe", "together with": "salmon DNA 0.4 mg/ml", "relative to": "random background probes", "direction": "higher = stronger binding"}
{"Sequence": "GCCTAGCACCACGATTTCAGACTGGAGACGTGCTAGGTCTTGATTCGCTTGACGCTGCTG", "log fluorescence [z-score]": 0.258}
{"Sequence": "GCCTAGCACCCCTTTCTCAACCTCCAGAGGTGCTAGGTCTTGATTCGCTTGACGCTGCTG", "log fluorescence [z-score]": 0.629}
{"Sequence": "GCCTAGCACTCAAATCTCAGCCTCCGACTGTGCTAGGTCTTGATTCGCTTGACGCTGCTG", "log fluorescence [z-score]": -0.0124}
{"Sequence": "GCCTAGCACTCAACTTTCTGAATGCTACTGTGCTAGGTCTTGATTCGCTTGACGCTGCTG", "log fluorescence [z-score]": 2.33}
{"data": "Series 3", "target": "Sal-like protein 4, full length isoform A (SALL4, Homo sapiens, UniProt Q9UJQ4, residues 1-1053)", "method": "universal PBM", "form": "double-stranded DNA, one strand shown", "sample": "in vitro", "concentration": "600 nM", "setting": "8-mer, flanks averaged, mean of replicates", "direction": "higher = stronger binding", "chain of UniProt Q9UJQ4 (whole entry, looked up)": "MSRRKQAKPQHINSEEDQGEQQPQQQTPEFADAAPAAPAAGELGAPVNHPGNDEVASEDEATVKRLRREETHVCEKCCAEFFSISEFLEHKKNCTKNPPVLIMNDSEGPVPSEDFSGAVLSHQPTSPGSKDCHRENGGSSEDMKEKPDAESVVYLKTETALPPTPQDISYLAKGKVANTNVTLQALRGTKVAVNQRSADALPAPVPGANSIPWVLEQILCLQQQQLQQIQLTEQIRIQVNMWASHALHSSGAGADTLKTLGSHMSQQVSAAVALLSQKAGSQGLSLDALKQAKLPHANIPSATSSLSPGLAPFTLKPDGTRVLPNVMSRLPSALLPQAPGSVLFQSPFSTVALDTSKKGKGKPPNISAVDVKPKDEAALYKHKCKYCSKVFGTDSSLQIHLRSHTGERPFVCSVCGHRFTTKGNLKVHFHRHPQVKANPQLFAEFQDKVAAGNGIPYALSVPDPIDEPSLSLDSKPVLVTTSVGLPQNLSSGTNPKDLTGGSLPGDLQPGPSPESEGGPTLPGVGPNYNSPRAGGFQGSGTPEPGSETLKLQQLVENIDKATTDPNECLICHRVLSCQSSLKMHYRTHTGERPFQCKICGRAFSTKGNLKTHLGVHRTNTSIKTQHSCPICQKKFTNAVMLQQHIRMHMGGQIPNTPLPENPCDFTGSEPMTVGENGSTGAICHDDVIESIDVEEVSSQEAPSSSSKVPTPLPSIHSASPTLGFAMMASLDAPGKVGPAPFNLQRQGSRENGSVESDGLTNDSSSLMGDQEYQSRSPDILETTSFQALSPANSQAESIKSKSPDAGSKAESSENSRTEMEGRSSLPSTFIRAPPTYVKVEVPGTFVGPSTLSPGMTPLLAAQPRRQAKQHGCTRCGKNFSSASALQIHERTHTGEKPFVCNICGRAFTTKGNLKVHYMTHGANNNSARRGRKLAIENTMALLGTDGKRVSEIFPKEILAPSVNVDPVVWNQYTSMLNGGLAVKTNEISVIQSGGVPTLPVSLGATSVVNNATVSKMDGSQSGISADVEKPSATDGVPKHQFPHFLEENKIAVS"}
{"Sequence": "GCGCATTA", "E-score": 0.0608}
{"Sequence": "ACGCAGAT", "E-score": -0.0283}
{"Sequence": "ACTTTATC", "E-score": 0.217}
{"Sequence": "CTTCATGC", "E-score": -0.0576}
{"Sequence": "AGCCCTTA", "E-score": -0.0412}
{"data": "Further values, each from its own experiment"}
{"Molecule": "PhoQ, residues 284 288 289 292 302 303 MLMVEA", "target": "PhoP, residues 12 14 15 18 19 YHFSH (Escherichia coli, UniProt P23836)", "assay": "Sort-seq, measured: YFP reporter", "test system": "E. coli", "setting": "PhoQ-PhoP variant library, together with: 10 µM Mg2+", "scale": "relative to: high Mg2+ state, higher = stronger signaling", "quantity": "fold induction", "value": 3.04}
{"note": "For quick reference, copied from above (series 2):"}
{"Sequence": "GCCTAGCACCCCTTTCTCAACCTCCAGAGGTGCTAGGTCTTGATTCGCTTGACGCTGCTG", "log fluorescence [z-score]": 0.629}
{"Sequence": "GCCTAGCACTCAAATCTCAGCCTCCGACTGTGCTAGGTCTTGATTCGCTTGACGCTGCTG", "log fluorescence [z-score]": -0.0124}
